Published values collected from several papers.
Protocols differ between the studies behind these lines. “And” joins repeats or separate records; there may be more than shown. ± marks the error that the study gave.
Cell line: HeLa

CC(C)C[C@H](NC(=O)[C@@H](NC(=O)[C@H](Cc1ccccc1)NC(=O)c1ccc(C(C)(C)C)cc1)C1CCC1)C(=O)N[C@@H](CCCCN(C)C1CC2CCC1C2)C(=O)N[C@@H](CO)C(=O)NCCOCCOCCCCCCCl (stereo partly drawn)
CP50 (cell penetration, chloroalkane penetration; 4 h, chloroalkane-tagged compound): 1.3 ± 0.29 µM

S=c1n(-c2ccccc2)c2c3ccccc3nc3[n+]2[n]1[Ir-3]12([S]3)([c]3ccc4ccccc4c3-c3sc4ccccc4[n+]31)[c]1ccc3ccccc3c1-c1sc3ccccc3[n+]12
cellular iridium uptake (ICP-MS; 10 µM, 24 h, 37 °C): 0.93 ± 0.23 fmol/cell

NC(=O)c1ccccc1NC(=O)c1cc(-c2ccccc2)n(-c2ccccc2)n1
CC50 (cell growth or viability): > 100 µM

CCC(=CCc1c(O)cc2c(c1O)C(=O)CC(c1c(O)cccc1OC)O2)CC (stereo not drawn)
log IC50 (cytotoxicity, MTT; 48 h, with: S9 fraction): > 2 log µM

Nc1ccc(CNC(=O)c2cc(-c3ccccc3)n(-c3ccccc3)n2)cc1
CC50 (cell growth or viability): > 50 µM

COc1ccc2ncc(F)c(C(O)C[C@H]3OC[C@H](NCc4ccc5c(c4)OCCO5)CO3)c2c1 (stereo partly drawn)
IC50 (cytotoxicity; 24 h): > 128 µg/mL

C[N+]1=C2C=C(NCCc3c[nH]c4ccccc34)C(=O)c3[nH]cc(c32)CC1
CC50 (cell growth or viability, MTT; 72 h): 0.5 µM

NCc1cccc(CNC(=O)c2cc(-c3ccccc3)n(-c3ccccc3)n2)c1
CC50 (cell growth or viability): > 50 µM

COc1ccc2nccc(CC[C@H]3OC[C@H](NC(=O)c4ccc(C(C)(C)C)cc4)CO3)c2c1
IC50 (cytotoxicity; 24 h): > 128 µg/mL

N#Cc1cc(NC(=O)c2cc(-c3ccccc3)n(-c3ccccc3)n2)ccc1N1CCC2(CC1)CNC2
CC50 (cell growth or viability): 6.3 µM

COc1cc(NC=O)c(N(C)S(=O)(=O)c2ccc(N(C)C)cc2)cc1OC
IC50 (cell growth or viability, XTT; 72 h): 9.4 µM

CCOC(=O)c1cnc(NCc2cccc(NC(=O)c3cc(-c4ccccc4)n(-c4ccccc4)n3)c2)nc1
CC50 (cell growth or viability): > 50 µM

COc1ccc2nccc(CC[C@H]3OC[C@H](NCc4ccc(Cl)c(Cl)c4)CO3)c2c1
IC50 (cytotoxicity; 24 h): 43.5 µg/mL

CN1CCCNC(=O)c2cccc(c2)C(=O)NCCCN(C)CCCNc2cccc3c2C(=O)c2cccc(c2C3=O)NCCC1
viability (cell growth or viability, CCK-8; 5 µM, 48 h): 5.38%

CCC(=CCc1c(O)cc2c(c1O)C(=O)CC(c1cccc(OC)c1O)O2)CC (stereo not drawn)
log IC50 (cytotoxicity, MTT; 48 h, with: S9 fraction): 1.32 log µM

O=C1C(NCCc2ccc(O)c(Br)c2)=CC2=NCCc3c[nH]c1c32
CC50 (cell growth or viability, MTT; 72 h): 1.5 µM

CC(C)CN(CCCC[C@H](NC(=O)[C@H](CCCN)NC(=O)[C@@H](NC(=O)[C@H](Cc1ccccc1)NC(=O)c1ccc(C(C)(C)C)cc1)C1CCC1)C(=O)N[C@@H](CO)C(=O)NCCOCCOCCCCCCCl)C1CC2CCC1C2 (stereo partly drawn)
CP50 (cell penetration, chloroalkane penetration; 4 h, chloroalkane-tagged compound): 13 ± 2 µM

COc1ccc(NC(=O)c2cc(-c3ccccc3)n(-c3ccccc3)n2)cc1
CC50 (cell growth or viability): > 50 µM

COc1ccc2ncc(F)c(CC[C@H]3OC[C@H](NCc4ccc(Cl)c(Cl)c4)CO3)c2n1
IC50 (cytotoxicity; 24 h): 53.3 µg/mL

O=C(Nc1cccc(CO)c1)c1cc(-c2ccccc2)n(-c2ccccc2)n1
CC50 (cell growth or viability): > 50 µM

CCC(=CCc1c(O)cc2c(c1O)C(=O)CC(c1ccc(OC)c(O)c1)O2)CC (stereo not drawn)
log IC50 (cytotoxicity, MTT; 48 h, with: S9 fraction): 1.21 log µM

O=C1C(NCCc2cc(Br)c(O)c(Br)c2)=CC2=NCCc3c[nH]c1c32
CC50 (cell growth or viability, MTT; 72 h): 8 µM

CC(C)C[C@H](NC(=O)[C@@H](NC(=O)[C@H](Cc1ccccc1)NC(=O)c1ccc(C(C)(C)O)cc1)C1CCC1)C(=O)N[C@@H](CCCCN(C)C1CC2CCC1C2)C(=O)N[C@@H](CO)C(=O)NCCOCCOCCCCCCCl (stereo partly drawn)
CP50 (cell penetration, chloroalkane penetration; 4 h, chloroalkane-tagged compound): 2.5 ± 0.77 µM

C=CCc1c(O)cc2c(c1O)C(=O)CC(c1ccc(O)cc1)O2 (stereo not drawn)
log IC50 (cytotoxicity, MTT; 48 h, with: S9 fraction): > 2 log µM

C/C1=C/[C@H](C)C[C@H](C)OC(=O)C[C@H](c2ccc(O)cc2)NC(=O)[C@@H](Cc2ccc(O)cc2)N(C)C(=O)[C@H](C)NC(=O)[C@@H](C)C1
CC50 (cell growth or viability): 48 µg/mL

CCC(=CCc1c(O)cc2c(c1O)C(=O)CC(c1ccc(OC)cc1O)O2)CC (stereo not drawn)
log IC50 (cytotoxicity, MTT; 48 h, with: S9 fraction): 1.2 log µM

COc1ccc2ncc(F)c(C[C@H](O)[C@H]3OC[C@H](NCc4ccc(Cl)c(Cl)c4)CO3)c2n1
IC50 (cytotoxicity; 24 h): 10.7 µg/mL

NC(=O)c1cccc(NC(=O)c2oncc2-c2ccccc2)c1
CC50 (cell growth or viability): > 50 µM

COc1ccc2ncc(F)c(C[C@H](O)[C@H]3OC[C@H](NCc4ccc(Cl)c(Cl)c4)CO3)c2c1
IC50 (cytotoxicity; 24 h): 28.8 µg/mL

COc1cc(/C=C/C=C2\SC(=S)NC2=O)ccc1O
viability (CellTiter-Glo; 2.5 µM, 24 h, unit not given; reference: untreated): 0.994 and 0.999

Some of these lines once more:
O=C1C(NCCc2ccc(O)c(Br)c2)=CC2=NCCc3c[nH]c1c32
CC50 (cell growth or viability, MTT; 72 h): 1.5 µM

CC(C)CN(CCCC[C@H](NC(=O)[C@H](CCCN)NC(=O)[C@@H](NC(=O)[C@H](Cc1ccccc1)NC(=O)c1ccc(C(C)(C)C)cc1)C1CCC1)C(=O)N[C@@H](CO)C(=O)NCCOCCOCCCCCCCl)C1CC2CCC1C2 (stereo partly drawn)
CP50 (cell penetration, chloroalkane penetration; 4 h, chloroalkane-tagged compound): 13 ± 2 µM

COc1ccc(NC(=O)c2cc(-c3ccccc3)n(-c3ccccc3)n2)cc1
CC50 (cell growth or viability): > 50 µM
